Results from different studies.
Parts stem from different laboratories: compare values within a part only. Positions count from the first letter of the parent shown.
Sequence of UniProt Q99755 (whole entry, looked up): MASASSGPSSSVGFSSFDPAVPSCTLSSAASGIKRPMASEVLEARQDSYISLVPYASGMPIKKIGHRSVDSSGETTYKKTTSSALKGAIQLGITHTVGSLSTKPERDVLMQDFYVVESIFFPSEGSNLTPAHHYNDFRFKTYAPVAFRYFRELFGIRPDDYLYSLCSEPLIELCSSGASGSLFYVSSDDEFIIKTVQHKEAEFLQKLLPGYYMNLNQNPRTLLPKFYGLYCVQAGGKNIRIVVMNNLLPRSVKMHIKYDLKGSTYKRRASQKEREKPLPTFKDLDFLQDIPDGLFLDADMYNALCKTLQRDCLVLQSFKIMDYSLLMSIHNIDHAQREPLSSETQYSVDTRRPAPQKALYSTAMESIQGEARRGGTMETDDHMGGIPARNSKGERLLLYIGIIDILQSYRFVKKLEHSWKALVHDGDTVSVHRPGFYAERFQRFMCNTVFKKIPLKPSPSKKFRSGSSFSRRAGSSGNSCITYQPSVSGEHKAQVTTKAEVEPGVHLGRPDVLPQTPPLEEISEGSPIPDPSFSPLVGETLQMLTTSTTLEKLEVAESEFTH

Block 1
Target: PABPC1L2, full length, GST fusion (mouse, UniProt A0ABA7IW68)
Method: RNAcompete
Form: RNA
Medium: in vitro
Concentration: 20 nM
Notes: 7-mer, probes averaged, single round
Relative to: mean of 7-mers
Direction: higher = stronger binding
Residues (chain): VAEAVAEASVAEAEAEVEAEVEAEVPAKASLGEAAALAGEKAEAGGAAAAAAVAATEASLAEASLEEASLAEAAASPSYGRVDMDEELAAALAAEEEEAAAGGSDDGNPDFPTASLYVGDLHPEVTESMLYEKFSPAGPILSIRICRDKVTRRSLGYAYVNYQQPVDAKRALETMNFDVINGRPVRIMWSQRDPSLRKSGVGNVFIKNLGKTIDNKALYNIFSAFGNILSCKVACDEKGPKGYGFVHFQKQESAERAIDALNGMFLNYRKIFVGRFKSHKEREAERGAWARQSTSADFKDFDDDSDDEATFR
Sequence | 7-mer Z-score
CCUUCGA | -0.318
UUUGGAU | -0.126
AGCCCGA | -0.00652
AUCGAGA | -0.00833
GCAGCUC | -0.15
UUCAACA | -0.0428
GCCACUC | -0.32
UCCUGAC | -0.248

Block 2
Target: Ras GTPase-activating protein-binding protein 1, RRM domain (G3BP1, Homo sapiens, UniProt Q13283)
Sequence of UniProt Q13283 (whole entry, looked up): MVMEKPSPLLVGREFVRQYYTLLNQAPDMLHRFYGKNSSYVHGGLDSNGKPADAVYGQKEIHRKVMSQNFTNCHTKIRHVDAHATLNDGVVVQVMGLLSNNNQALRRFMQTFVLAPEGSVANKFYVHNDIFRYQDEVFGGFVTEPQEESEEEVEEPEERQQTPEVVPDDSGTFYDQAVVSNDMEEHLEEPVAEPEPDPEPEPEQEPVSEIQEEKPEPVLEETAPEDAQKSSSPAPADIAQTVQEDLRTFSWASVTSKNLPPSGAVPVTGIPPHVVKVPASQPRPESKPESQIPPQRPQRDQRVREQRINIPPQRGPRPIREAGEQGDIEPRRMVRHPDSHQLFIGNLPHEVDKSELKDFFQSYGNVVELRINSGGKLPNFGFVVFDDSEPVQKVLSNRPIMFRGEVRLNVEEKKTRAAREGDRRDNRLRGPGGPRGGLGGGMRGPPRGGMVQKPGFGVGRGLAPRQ
Method: RNA Bind-n-Seq
Form: RNA
Medium: in vitro
Concentration: 1 µM
Notes: whole 134-nt RNA, ends assumed
Added: 150 mM KCl
Relative to: input library
Direction: higher = stronger binding
Sequence | log2 enrichment
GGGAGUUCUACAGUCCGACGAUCUGGCCCUGGUGGCAUGCGGGGAGGAAGAGGUGGCCUCAUGGAUCGUGGUGGUCCCGGUCGAAUGUUCAGAGGUGGCCGUGGUGGAGACAGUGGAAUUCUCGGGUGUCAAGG | 0.695
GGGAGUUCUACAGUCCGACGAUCCAAGUCCUGUGCUACACAUCGUAUGUACCGAAUCGGGUUUGGGUUUGGGUUUGGGAAAGUAUUAUGUUACGCCGUUCGGAUCUGCACUUCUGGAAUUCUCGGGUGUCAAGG | 0.769
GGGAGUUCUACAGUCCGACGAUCCCUGUGCUACACAUCGUAUGUACCGAAUCGGAAAAAAAGGGGAAAAAAAGGGAAAAAAAGGAAAGUAUUAUGUUACGCCGUUCGGAUCUGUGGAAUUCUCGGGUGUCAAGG | -0.0256
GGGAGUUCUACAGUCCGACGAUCUGGGAGGUGGAUUUUGUUUAUUUUUUUAGCUCAUUUCCAGGGGUGCGAAUUUUUUUUUAAUAUGUGUCAUGAAUAAAGUUGUUUUUGAAAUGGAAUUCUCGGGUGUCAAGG | 1.3
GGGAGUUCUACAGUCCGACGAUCUCUAUCCUGUCCCUCCACCCCACCCUCCACCUCAAUCCCCUCCCAUCUUCCCCAGACCUACCUCACCUACUAGGACCUGAGGCAGCUCCUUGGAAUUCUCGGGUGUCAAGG | -0.327
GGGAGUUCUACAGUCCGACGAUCUGGCCCUGCUGGCAUGCGGGGAGGAAGAGGUGGCCUCAUGGAUCGUGGUGGUCCCGGUGGAAUGUUCAGAGGUGGCCGUGGUGGAGACAGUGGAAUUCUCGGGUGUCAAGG | 0.911
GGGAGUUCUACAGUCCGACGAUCCACAGACAACACGCACCCACACAGACACAGAGGGAAGGGGUUGGGAUGGGGACAGGGUGCACAGCCGGGCGGGGUAGGACCCCAGCCCCUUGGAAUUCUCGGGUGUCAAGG | 0.144
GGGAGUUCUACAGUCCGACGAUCCACAGACAACACGCACCCACACAGACACAGAGGGAAGGGGGUGGGAUGGGGACAGGGUGCACAGCAGGGCGGGGUAGGACCCCAGCCCCUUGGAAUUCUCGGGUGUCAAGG | 0.414

Block 3
Target: CCNB3, cyclin fold, Cln2 fusion (human)
Method: yeast growth competition, sequencing
Medium: yeast
Notes: strong parent motif
Relative to: not given
Direction: higher = stronger binding
Starting sequence: PPP1R3F docking peptide (human); VAPRRVLFADEAL
Change | normalised enrichment score
V6A | 0.436
L7A | 0.334
F8L | 0.432
R5A | 0.506
R5K | 1.01
D10A | 0.978
R5A L7A | -0.0202
P3A | 1.47

Mixed results
SMILES | target | read-out | method | concentration | endpoint | value
Cc1c(C(=O)O)cc(-c2ccc(C3CCNCC3)cc2)c2ccc(-c3ccc(C(F)(F)F)cc3)cc12 | Phosphatidylinositol 4-phosphate 5-kinase type-1 alpha (PIP5K1A, Homo sapiens, UniProt Q99755) | cell-free assay | competition with immobilised ligand | 1 µM | remaining binding | 70%

Some of these lines once more (block 3):
Change | normalised enrichment score
R5A | 0.506
R5K | 1.01
D10A | 0.978
